Results from different studies.
Each line is one published result; not all experiments were run side by side. Values joined by “and” are separate records of one study, mostly repeats; a detail may differ. ± gives the spread as reported.
Kir3.1/Kir3.4: Kir3.1/Kir3.4 (Homo sapiens, UniProt P48544+P48549)
AKR1B1: Aldo-keto reductase family 1 member B1 (AKR1B1, Homo sapiens, UniProt P15121)
pyrD: Dihydroorotate dehydrogenase (quinone) (pyrD, Acinetobacter baumannii, UniProt B7GZW7)
T1: riboswitch RNA yjdF aptamer domain (Bacillus subtilis); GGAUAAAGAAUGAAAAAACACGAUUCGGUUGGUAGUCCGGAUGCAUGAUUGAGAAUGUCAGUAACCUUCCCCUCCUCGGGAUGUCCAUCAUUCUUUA
T2: ssDNA, aptamer; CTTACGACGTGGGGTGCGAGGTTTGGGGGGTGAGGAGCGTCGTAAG

SMILES | tested on | test | test system | setting | how to read | quantity | result
Cc1cc(NC(=O)CNC2CCCNC2)n(C2CCS(=O)(=O)C2)n1 (stereo not shown) | Kir3.1/Kir3.4 | activator, thallium flux | HEK293 | concentration not given | – | activity | inactive
CC(C)C[C@H](NC(=O)C[C@H](O)[C@H](CC(C)C)NC(=O)[C@H](Cc1c[nH]cn1)NC(=O)CNC(=O)[C@@H](NC(=O)[C@H](C)NC(=O)[C@H](Cc1c[nH]c2ccccc12)NC(=O)[C@H](CCC(N)=O)NC(=O)[C@@H](Cc1ccccc1)NC(=O)COCCOCCNC(=O)CCC(C(=O)O)N1CCN(CC(=O)O)CCN(CC(=O)O)CCN(CC(=O)O)CC1)C(C)C)C(N)=O (stereo partly shown) [lutetium-177 labelled] | – | – | BALB/c nu/nu mice, blood | intravenous, 50 pmol, 1 h, together with: PA 300 µg | – | tissue uptake | 0.45 ± 0.08 %ID/g
CCCC[C@H](NC(=O)[C@H](C)c1c(C)[nH]c2ccc(O)cc12)c1ncc(-c2cc3ccccc3nc2OC)[nH]1 | PTGER3 (Homo sapiens, UniProt P43115) | – | – | – | – | Hill coefficient | 1.2
OC[C@H]1O[C@H](O[C@H]2[C@H](O)[C@@H](O)[C@H](O)O[C@@H]2CO)[C@H](O)[C@@H](O)[C@@H]1O | – | binding, MIDAS equilibrium dialysis LC-MS | A2AR-BRIL thermostabilized | concentration not given | baseline: no-protein control | log2 fold change | -0.0693
NCCCCC(=O)O | SLC6A6 (Homo sapiens, UniProt P31641, Y138A) | binding, microscale thermophoresis | – | 500 µM, room temperature, together with: 50 nM labelled protein | higher = more binding | normalised MST signal | 0.00782
CCCCc1oc2ccc(NS(C)(=O)=O)cc2c1C(=O)c1ccc(OCCCN(CCCC)CCCC)cc1 | Cytochrome P450 2J2 (CYP2J2, Homo sapiens, UniProt P51589) | inactivator | – | together with: astemizole substrate | – | KI | 40 ± 10 nM
Cn1cc(C(=O)Nc2cccc(C(=O)O)c2)ccc1=O | CREB-binding protein, bromodomain (CREBBP, Homo sapiens, UniProt Q92793) | binding | – | – | – | ligand efficiency | 0.37
O=C(CN1C(=O)S/C(=C\c2ccc(Cl)cc2)C1=O)c1ccc([N+](=O)[O-])cc1 | AKR1B1 | enzyme activity, inhibitor | – | – | – | log IC50 | 2.67 log nM
CCn1c(-c2nc3ccc(C(=O)N4CCCC(N)C4)cc3n2C)cc2ccccc21 (stereo not shown) | PADI4 (Homo sapiens, UniProt Q9UM07) | binding, competitor, chemoproteomic pulldown immunoblot | – | 10 µM | – | bead pulldown of target | no effect
CC[C@H](C)[C@@H]1NC(=O)[C@H](C)NC(=O)[C@H]([C@@H](C)CC)NC(=O)[C@H](CCC(N)=O)NC(=O)[C@H](C)NC(=O)[C@H](CCCNC(=N)N)NC(=O)[C@H](C(C)C)NC(=O)[C@H](CC(C)C)NC(=O)[C@H](CCC(=O)O)NC(=O)[C@H](CCCNC(=N)N)NC(=O)CNC(=O)[C@@H](NC(=O)[C@H](CC(C)C)NC(=O)[C@H](CCCCN)NC(=O)[C@@H](NC(=O)[C@@H](NC(=O)[C@H](CCC(=O)O)NC(=O)[C@H](CCC(=O)O)NC(=O)[C@H](CCSC)NC(=O)[C@H](Cc2c[nH]c3ccccc23)NC(=O)[C@H](CO)NC(=O)[C@@H](N)CC(=O)O)C(C)C)[C@@H](C)CC)CSSC[C@@H]2NC(=O)[C@@H](NC(=O)[C@H](CCCCN)NC(=O)[C@H](CC(N)=O)NC(=O)[C@H](C)NC(=O)[C@H](CC(C)C)NC(=O)[C@H](C)NC(=O)[C@H](CO)NC(=O)[C@H](Cc3ccc(O)cc3)NC(=O)[C@H](CC(C)C)NC(=O)[C@H](CCC(N)=O)NC(=O)c3ccc(-c4c5ccc(=[N+](C)C)cc-5oc5cc(N(C)C)ccc45)c(C(=O)[O-])c3)CSSC[C@H](NC(=O)CNC(=O)[C@H](C(C)C)NC(=O)[C@H](Cc3c[nH]cn3)NC2=O)C(=O)N[C@@H]([C@@H](C)O)C(=O)N[C@@H](CCCCN)C(=O)N[C@@H](CCCNC(=N)N)C(=O)N[C@@H](CO)C(=O)N[C@@H](CC(C)C)C(=O)N[C@@H](C)C(=O)N[C@@H](CCCNC(=N)N)C(=O)N[C@@H](Cc2ccccc2)C(=O)N[C@H](C(=O)O)CSSC[C@@H](C(=O)NCC(=O)N[C@@H](CCSC)C(=O)N[C@@H](CO)C(=O)N[C@H](C(=O)N[C@@H](Cc2c[nH]c3ccccc23)C(=O)N[C@@H](CO)C(=O)O)[C@@H](C)O)NC1=O | Relaxin receptor 1 (RXFP1, Homo sapiens, UniProt Q9HBX9) | binding, NanoBRET | – | concentration not given, together with: relaxin 1 µM | – | fast dissociation fraction | 20.1%
C[S+](CC[C@H](N)C(=O)[O-])C[C@H]1O[C@@H](n2cnc3c(N)ncnc32)[C@H](O)[C@@H]1O (stereo partly shown) | KMT2C (Homo sapiens, UniProt Q8NEZ4) | substrate, enzyme-coupled methylation | – | together with: H3 peptide 50 µM | – | apparent Vmax | 0.4 ± 0.04 µM/min
CC(NC(=O)CCCc1ccc2ccc3cccc4ccc1c2c34)C(=O)NO (stereo not shown) | HDAC8 (Homo sapiens, UniProt Q9BY41) | ITC | Tris buffer | pH 7.5 | – | TΔS | 5.3 kcal/mol
C=CC(=O)N1CCC(COCC(=O)N2CCN(c3nc(-c4cnc(N)nc4C(F)F)nc(N4CCOC[C@@H]4C)n3)CC2)CC1 | EPHA8 (Homo sapiens, UniProt P29322) | KINOMEscan | – | 1 µM | – | remaining binding | 88%
O=C(COc1ccc(Cl)cc1Cl)Nc1cc(C2CCC2)nn1CC(F)(F)F | Kir3.1/Kir3.4 | activator, thallium flux | HEK293 | concentration not given | – | activity | inactive
C=C(c1ccc(Nc2cc(C)nc3nc(C(C)(F)F)nn23)cc1)C(F)(F)F | pyrD | enzyme activity, inhibitor, colorimetric HTS, measured: DCIP reduction | – | 3 µM | direction not given | robust Z-score | 14.8
C[C@@H](N)C(=O)Nc1ccc2ccccc2c1 | rat aminopeptidase III | substrate | – | concentration not given, pH 7.0 | – | hydrolysis | inactive
CN(C)C(=O)C(CCN1CCC(O)(c2ccc(Cl)cc2)CC1)(c1ccccc1)c1ccccc1 | Calcium-activated potassium channel subunit alpha-1, with LRRC26 γ1 subunit (KCNMA1, Homo sapiens, UniProt Q12791) | BK current, inside-out patch clamp | excised membrane patch | 0.1 µM, γ1 coexpressed, individual fits, together with: nominally 0 Ca2+ cytosolic | – | effective gating valence | 1.23 ± 0.12 elementary charges
CN1CCC(=C2c3ccccc3Sc3ccccc32)CC1 | HTR1D (Homo sapiens, UniProt P28221) | agonist | – | concentration not given | – | agonist activity | inactive
C[C@]12C[C@H](O)[C@H]3[C@@H](CCC4=CC(=O)CC[C@@]43C)[C@@H]1CC[C@@H]2C(=O)CO | CYP11B1 (Homo sapiens, UniProt P15538, V320A) | – | nanodiscs | 25 °C, fast phase | – | kon | 10000 M⁻¹ s⁻¹
COc1ccc(/C=C2\SC(=O)N(Cc3nc4ccccc4s3)C2=O)cc1 | AKR1B1 | enzyme activity, inhibitor | – | – | – | log IC50 | 2.98 log nM
Cc1c(-c2ccc(N3CCc4cccc(C(=O)Nc5nc6ccccc6s5)c4C3)nc2C(=O)O)cnn1CC12CC3(C)CC(C)(C1)CC(OCCNCC[C@H](O)CO)(C3)C2 | – | – | anaesthetised male beagle dogs | intravenous infusion, 0.3 mg/kg/min, 60 min | baseline: vehicle | cardiac output change | -20%
CCc1nc2nc(C)cc(Nc3ccc(C(F)(F)F)cc3)n2n1 | pyrD | enzyme activity, inhibitor, colorimetric HTS, measured: DCIP reduction | – | 3 µM | direction not given | robust Z-score | 21.1

SMILES | tested on | test | test system | setting | how to read | quantity | result
O=C(COP(=O)(O)O)[C@@H](O)[C@H](O)[C@H](O)COP(=O)(O)O | Small ribosomal subunit protein uS19 (Homo sapiens, UniProt P62841) | thermal proteome profiling, measured: RPS15 | HepG2 cell lysate | concentration not given, 57 over 37 °C | baseline: compound over control | thermal stability ratio | 0.625 and 0.45 and 0.696
NC/C(=C\F)COc1cccc(Cn2c(=S)[nH]c(=O)c3[nH]cnc32)c1 | CACNA1C (Homo sapiens, UniProt Q13936) | peak ion current, inhibitor, automated patch clamp | – | 10 µM, pulse 1 | – | inhibition | 0.5%
CC(C)C[C@H](NC(=O)C[C@H](O)[C@H](CC(C)C)NC(=O)[C@H](Cc1c[nH]cn1)NC(=O)CNC(=O)[C@@H](NC(=O)[C@H](C)NC(=O)[C@H](Cc1c[nH]c2ccccc12)NC(=O)[C@H](CCC(N)=O)NC(=O)[C@@H](Cc1ccccc1)NC(=O)COCCOCCNC(=O)CN1CCN(CC(=O)O)CCN(CC(=O)O)CCN(CC(=O)O)CC1)C(C)C)C(N)=O [lutetium-177 labelled] | – | – | female BALB/c nu/nu mice, blood | intravenous, 50 pmol, 24 h | – | tissue uptake | 0.0088 ± 0.0004 %ID/g
CC(=C/C(=O)O)/C=C/C=C(\C)C1C=C2C(C)(C)CCCC2(C)O1 (stereo not shown) | Rhodopsin (RHO, Homo sapiens, UniProt P08100, E181K) | ER retention, immunostaining co-localization, measured: opsin with calnexin | COS-7 transfected E181K | 0.05 µM | – | Pearson correlation coefficient | 0.81
CC(C)C[C@H](N)C(=O)O | snf (Aquifex aeolicus, UniProt O67854) | isothermal titration calorimetry | – | concentration not given, pH 7.0, 25 °C | – | binding stoichiometry | 0.7 ± 0.01 mol/mol LeuT
Nc1ccn([C@H]2C[C@H](O)[C@@H](COP(=O)(O)OP(=O)(O)OP(=O)(O)O)O2)c(=O)n1 | DNA polymerase beta (POLB, Homo sapiens, UniProt P06746) | substrate | – | AP-site template | – | kcat | 0.000133 s⁻¹
NCCS(=O)(=O)O | SLC6A6 (Homo sapiens, UniProt P31641, S402A) | binding, microscale thermophoresis | – | 244 nM, room temperature, together with: 50 nM labelled protein | higher = more binding | normalised MST signal | -0.0599
O=c1nc(SCc2cc(F)cc(C(F)(F)F)c2)nc(SCc2ccc3sccc3c2)[nH]1 | TOP2A (Homo sapiens, UniProt P11388) | DNA relaxation | – | 31.25 µM, replicate 2 | – | relaxed DNA | 0%
CN(C)c1ccc(C(=C2C=CC(=[N+](C)C)C=C2)c2ccccc2)cc1 | T1, riboswitch RNA yjdF aptamer domain (Bacillus subtilis) | fluorescence titration | – | – | – | Kd | 26 nM
N[C@@H](CO)C(=O)Nc1ccc2ccccc2c1 | rat aminopeptidase III | substrate | – | concentration not given, pH 7.0 | – | hydrolysis | inactive
Nc1ncnc2c1ncn2[C@@H]1O[C@H](CSCC[C@H](N)C(=O)O)[C@@H](O)[C@H]1O | O-methyltransferase (Sorghum bicolor, UniProt A0A1B6PFV1) | ITC | – | concentration not given, together with: PTR+ | – | binding stoichiometry | 1 ± 0.014
CCc1cc(NC(=O)COc2cc(Cl)ccc2Cl)n(C2CCC(F)(F)CC2)n1 | Kir3.1/Kir3.4 | thallium flux, activator | HEK293 | – | baseline: standard compound | Emax | 67%
Nc1nc2c(ncn2[C@@H]2O[C@H](COP(=O)(O)O)[C@@H](O)[C@H]2O)c(=O)[nH]1 | GUK1 (Homo sapiens, UniProt Q16774) | enzyme activity, NADH-coupled | – | 2000 µM, together with: KCl 150 mM | – | reaction velocity | 0.0679 µM/s and 0.0648 µM/s and 0.0688 µM/s
Cc1cc(Nc2ccc(C(F)(F)F)cc2)n2ncnc2n1 | pyrD | enzyme activity, inhibitor, colorimetric HTS, measured: DCIP reduction | – | 3 µM | direction not given | robust Z-score | 19.7
Cc1nn(-c2nc3c(F)cc(F)cc3s2)c(O)c1C(c1ccc(C(F)(F)F)cc1)c1c(C)nn(-c2nc3c(F)cc(F)cc3s2)c1O | Cgas (Mus musculus, UniProt Q8C6L5) | enzyme activity, inhibitor, pyrophosphatase-coupled | – | 12.5 µM, 1.5 h, mouse enzyme | – | inhibition | 82.1%
C[C@@H](c1ccc(-n2cnc3c(N)ncnc32)cc1)N1CCc2nn(C)c(Cc3ccccc3)c2C1=O | PNCK (Homo sapiens, UniProt Q6P2M8) | KINOMEscan | – | 0.1 µM | baseline: DMSO | remaining binding | 74%
Nc1ncnc2c1ncn2[C@@H]1O[C@H](COP(=O)(O)OP(=O)(O)OP(=O)(O)O)[C@@H](O)[C@H]1O | T2, ssDNA, aptamer | ITC | – | – | – | Kd | 1130 nM
Nc1ncnc2c1ncn2[C@@H]1O[C@H](COP(=O)(O)CP(=O)(O)OP(=O)(O)O)[C@@H](O)[C@H]1O | P2X purinoceptor 1 (P2RX1, Homo sapiens, UniProt P51575, E122A) | calcium influx | – | 3.16 µM | baseline: ionomycin response | calcium influx | 83.5% and 70.7% and 71.9% and 74.8%
CC1=NN(c2ccccc2)C(=O)C1=NNc1ccc(S(N)(=O)=O)cc1 | bovine α-glucosidase | enzyme activity, inhibitor, glucose oxidase | – | 200 µg/mL, together with: maltose | – | inhibition | 40.1%
Nc1nc(=O)n([C@H]2C[C@H](O)[C@@H](CO)O2)cc1CCN(CC[C@H](N)C(=O)O)C[C@H]1O[C@@H](n2cnc3c(N)ncnc32)[C@H](O)[C@@H]1O | DNMT1 (Homo sapiens, UniProt P26358) | radiometric [3H]-SAM | – | concentration not given, together with: SAM, poly(dI-dC) | – | inhibition type | inhibited
Cn1cc(-c2ccc(-c3cncc(Cl)c3N3CCC4(CCNC4=O)CC3)cc2)cn1 | COLO 205 | gene expression, microarray, measured: SGK1 mRNA | – | concentration not given, 2 h | baseline: untreated cells | log2 fold change | 6.67
